# Experimental data gathered from unrelated publications.
# Numbered parts are unrelated; each lists some results of a single study. Substitutions count along the parent as printed.

# Set 1
# Target: Histone acetyltransferase KAT6A, both winged helices, GST fusion (KAT6A, Homo sapiens, UniProt Q92794, residues 1-181)
# Technique: protein binding microarray
# Form: double-stranded DNA, one strand shown
# Matrix: in vitro
# Tested at: not given
# Notes: 8-mer, flanks averaged, mean of 2 arrays, mostly near background
# Reference: not given
# Direction: higher = stronger binding
# Residues (chain): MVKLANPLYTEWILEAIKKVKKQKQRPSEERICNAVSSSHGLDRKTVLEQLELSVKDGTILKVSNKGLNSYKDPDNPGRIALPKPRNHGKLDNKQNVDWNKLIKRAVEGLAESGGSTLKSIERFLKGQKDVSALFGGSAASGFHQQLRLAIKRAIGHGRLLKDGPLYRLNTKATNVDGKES
Oligonucleotide,E-score
AATATAAG,0.0205
AGGGCATC,-0.203
GAAGGGAC,-0.0988
AGTAATGC,0.019
CGTAGCCC,0.0629
CGTCGTAA,-0.0299
CAGTACTA,-0.129
AATACGCC,0.115
TAGACGCA,0.102
GAGCAACA,-0.053
CCCAGCTC,-0.217
GCCAGTCC,0.0399
ATCCCGTG,0.211
ATGGCCCG,0.216
CGAGCATA,-0.114
CCTATCAG,-0.175
GACGGAGA,0.251
AATGACAC,-0.092
AACCGCTA,0.146
TACTGAAA,-0.0428
AGAAGAGG,-0.0398
ACGAATGG,-0.121
ACATTCAG,-0.027
CCTGGCAA,-0.172
GAGGCCTA,-0.167

# Set 2
# Target: PABPC1L2, full length, GST fusion (mouse, UniProt A0ABA7IW68)
# Technique: RNAcompete
# Form: RNA
# Matrix: in vitro
# Tested at: 20 nM
# Notes: 7-mer, probes averaged, single round
# Reference: mean of 7-mers
# Direction: higher = stronger binding
# Construct (chain): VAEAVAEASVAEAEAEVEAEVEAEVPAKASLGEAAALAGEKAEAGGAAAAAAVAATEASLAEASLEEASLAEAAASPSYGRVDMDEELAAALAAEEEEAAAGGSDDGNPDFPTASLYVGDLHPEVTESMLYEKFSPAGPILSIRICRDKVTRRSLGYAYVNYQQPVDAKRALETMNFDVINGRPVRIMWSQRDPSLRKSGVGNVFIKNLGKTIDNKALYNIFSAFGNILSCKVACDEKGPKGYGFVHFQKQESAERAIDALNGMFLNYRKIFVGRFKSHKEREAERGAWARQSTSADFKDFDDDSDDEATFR
Oligonucleotide,7-mer Z-score
GCACAGG,0.177
UCUAUUG,-0.287
AGCAAGA,0.149
CGAUUAA,0.142
AAGGCUG,0.35
GACCCCU,-0.385
CAUUGAC,-0.126
UUACUCG,-0.242
UUCCUCC,-0.438
GUCCUGA,-0.338
GUAGGUG,0.109
CCAAGCU,-0.195
CCCUUAG,-0.349
UGUAUUA,-0.155
UUAUAUG,-0.0736
UUUCGUU,-0.566
UUAUGGA,-0.0573
UAGUCGA,-0.226
AACCAUA,0.245
GGGAAGC,0.0497
CGGGUGG,0.0279

# Set 3
# Target: Interferon regulatory factor 7, full length, phosphomimetic (IRF7, Homo sapiens, UniProt Q92985, residues 1-503, S101K/S471D/S472D/S475D/S476D/S477D/S483D/S484D/S487D)
# Technique: protein-binding microarray
# Form: double-stranded DNA, one strand shown
# Matrix: in vitro
# Tested at: 250 nM
# Notes: 60-bp whole probe
# Together with: salmon DNA 0.4 mg/ml
# Reference: random background probes
# Direction: higher = stronger binding
# Shared flanks, not repeated: GCCTAGCAC … GTCTTGATTCGCTTGACGCTGCTG
# Residues (chain): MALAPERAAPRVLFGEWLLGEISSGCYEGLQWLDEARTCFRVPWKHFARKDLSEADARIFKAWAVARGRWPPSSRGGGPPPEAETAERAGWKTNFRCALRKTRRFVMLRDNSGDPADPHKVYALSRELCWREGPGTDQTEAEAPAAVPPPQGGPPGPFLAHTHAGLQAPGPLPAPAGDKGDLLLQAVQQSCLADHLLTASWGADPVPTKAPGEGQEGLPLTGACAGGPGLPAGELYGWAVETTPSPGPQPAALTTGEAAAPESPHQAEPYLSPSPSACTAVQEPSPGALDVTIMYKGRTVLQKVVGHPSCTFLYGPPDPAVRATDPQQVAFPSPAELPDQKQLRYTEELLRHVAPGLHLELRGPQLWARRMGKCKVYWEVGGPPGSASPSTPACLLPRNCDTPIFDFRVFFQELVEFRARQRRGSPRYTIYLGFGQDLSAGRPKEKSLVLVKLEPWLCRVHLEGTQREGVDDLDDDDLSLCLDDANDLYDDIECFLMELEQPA
Oligonucleotide,log fluorescence
TTAGGTATCCTTTTCTTTTAGTGCTAG,1.48 z-score
GACGGTCTCGTTCTCGGGACGTGCTAG,1.54 z-score
GACCATATCAGTCTCGAGACGTGCTAG,0.917 z-score
GGGAGCTATTAATTATTTTGGTGCTAG,-0.296 z-score
TTACGTATCGGGACTGGGTTAGTGCTA,0.0413 z-score
GACGGTATCGGTTTAGGGACGTGCTAG,5.68 z-score
TTAGAACTCAGTCTCGATTAGTGCTAG,1.39 z-score
TATTGTGTCAACTTTCTCTGCGTGCTA,0.127 z-score
ATAGATTTCAGTCTCGATTAGTGCTAG,2.14 z-score
GACGGTATCGACTTTCGGGATGTGCTA,1.57 z-score
TTAGAACTGAGAGTGGATTAGTGCTAG,-0.406 z-score
TTAGGTTTCGTTTTCCTTTAGTGCTAG,14.6 z-score
TCATTTTTCTGATCCATACTGTGCTAG,1.45 z-score
GACGTTATCCTTCTCCTGACGTGCTAG,0.672 z-score
TGGCAGCATTCTTGGAAATCGTGCTAG,-0.752 z-score
TTCGGTTTCGACTTTCGGTTAGTGCTA,11.7 z-score
GACGGTTTCGGTCCCGGGACGTGCTAG,6 z-score
GACGATTTCAGACTGGAGATGTGCTAG,0.0386 z-score
GACGGTATCGACACTGGGGGCGTGCTA,0.531 z-score
GACGGTCTCTGTCTCGGGACGTGCTAG,0.0644 z-score
GACGGTATCGACACTGCGGACGTGCTA,-0.404 z-score
TCACATGTGCTGTCTCAGACTGTGCTA,-0.706 z-score
ATGGAAATGCACCCCACGCTGTGCTAG,-0.686 z-score
TTAGGTCTACTTTTCCTTTAGTGCTAG,0.928 z-score
TTAGGTTTCGGGTCCGGTTAGTGCTAG,7.13 z-score

# Set 4
# Target: CCNB2, cyclin fold, Cln2 fusion (human)
# Technique: yeast growth competition, sequencing
# Matrix: yeast
# Notes: weak parent motif
# Reference: not given
# Direction: higher = stronger binding
# Starting sequence: CDC25A docking peptide (human); PPHRRRLLFACSP
Change,normalised enrichment score
R4C,0.315
P1V,0.361
F9H,0.508
R5N,0.111
P2F,0.642
P1R,0.638
P1A,0.593
R6M,0.682
R4Q,0.694
C11G,0.511
P1F,0.333
R4Y,0.187
R4P,-0.162
S12Q,0.315
C11H,0.805
P13C,0.623
R5H,0.779
A10K,0.469
S12C,0.433
P1C,-0.0193

# Set 5
# Target: Ras GTPase-activating protein-binding protein 1, full length (G3BP1, Homo sapiens, UniProt Q13283)
# Sequence of UniProt Q13283 (whole entry, looked up): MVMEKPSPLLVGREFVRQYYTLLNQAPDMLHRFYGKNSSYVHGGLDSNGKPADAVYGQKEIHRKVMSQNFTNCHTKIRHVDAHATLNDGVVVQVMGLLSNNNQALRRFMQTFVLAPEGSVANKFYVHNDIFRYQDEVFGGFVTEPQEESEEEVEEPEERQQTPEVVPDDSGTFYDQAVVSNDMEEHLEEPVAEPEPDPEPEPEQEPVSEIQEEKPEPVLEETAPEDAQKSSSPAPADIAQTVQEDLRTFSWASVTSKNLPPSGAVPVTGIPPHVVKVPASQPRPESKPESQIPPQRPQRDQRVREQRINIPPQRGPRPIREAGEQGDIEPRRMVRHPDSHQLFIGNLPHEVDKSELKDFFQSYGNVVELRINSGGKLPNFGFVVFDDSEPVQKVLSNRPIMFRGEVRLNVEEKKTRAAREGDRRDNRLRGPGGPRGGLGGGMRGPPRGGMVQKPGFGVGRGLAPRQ
# Technique: RNA Bind-n-Seq
# Form: RNA
# Matrix: in vitro
# Tested at: 200 nM
# Notes: whole 134-nt RNA, ends assumed
# Together with: 150 mM KCl
# Reference: input library
# Direction: higher = stronger binding
Oligonucleotide,log2 enrichment
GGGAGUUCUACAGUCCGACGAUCAGUCCUGUGCUACACAUCGUAUGUACCGAAUCGGGGUGGGGUGGGGAAAAAAAGGGGAAAGUAUUAUGUUACGCCGUUCGGAUCUGCACUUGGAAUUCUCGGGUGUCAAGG,0.388
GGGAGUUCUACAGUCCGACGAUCUCAAGUCCUGUGCUACACAUCGUAUGUACCGAAUCGGUUUGGGGUUUGGUUUGGGAAAGUAUUAUGUUACGCCGUUCGGAUCUGCACUUCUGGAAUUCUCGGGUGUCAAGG,-0.54
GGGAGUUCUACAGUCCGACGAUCAGGCUAUGGAGGCUAUGAUGAUUACAAUGGCUAUAAUGAUGGCUAUGGAUUUGGGUCAGAUAGAUUUGGAAGAGGUAAGGUAAGAAUUGAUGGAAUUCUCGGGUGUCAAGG,0.447
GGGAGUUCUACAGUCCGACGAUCGUCCUGUGCUACACAUCGUAUGUACCGAAUCAAAUUUUUAAACCCCCCCAAACCCAAAAAAGUAUUAUGUUACGCCGUUCGGAUCUGCACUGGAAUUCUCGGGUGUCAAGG,-0.136
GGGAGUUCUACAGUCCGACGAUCCCUGUGCUACACAUCGUAUGUACCGAAUCGGGGUUUUUUUGGGGAAAGGGGUUUUUGGGGAAAGUAUUAUGUUACGCCGUUCGGAUCUGCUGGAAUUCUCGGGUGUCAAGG,0.108
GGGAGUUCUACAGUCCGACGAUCGUCCUGUGCUACACAUCGUAUGUACCGAAUCAAAGUGUGUGUGUGUGUGUGUGUGAAAAAAGUAUUAUGUUACGCCGUUCGGAUCUGCACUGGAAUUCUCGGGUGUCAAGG,0.599
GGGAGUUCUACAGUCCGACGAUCACCAUGCAGGUGGGCAUCUUUGGGAAGUCGGGCAAGGGGGGGAUAGGGAGGGGGGUAACACUUUGGGAACAGGUGGUCCCAGGUCGUUUCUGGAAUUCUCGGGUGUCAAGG,1.1
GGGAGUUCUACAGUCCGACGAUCUGGGAGGUGGAUUUUGUUUAUUUUUUGAGCUCAUUUCCAGGGGUGGGAAUUUUUUUUUAAUAUGUGUCAUGAAUAAAGUUGUUUUUGAAAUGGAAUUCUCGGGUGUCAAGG,0.313
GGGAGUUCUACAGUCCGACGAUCCACAGACAACACGCACCCACACAGACACAGAGGGAAGGGGUUGGGAUGGGGACAGGGUGCACAGCAGCGCGGGGUAGGACCCCAGCCCCUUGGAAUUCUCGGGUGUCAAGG,1.94
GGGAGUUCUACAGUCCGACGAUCCACAGACAACACGCACCCACACAGACACAGAGGGAAGGGGUUGGGAUGGGGACAGGGUGCACAGCAGGGCGGGGUAGGACCCCAGCCCUUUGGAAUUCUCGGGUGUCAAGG,1.79
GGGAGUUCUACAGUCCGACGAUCGUCCUGUGCUACACAUCGUAUGUACCGAAUCGGGCCCCCGGCCCCCGGGGCCCCCGGGGAAAGUAUUAUGUUACGCCGUUCGGAUCUGCAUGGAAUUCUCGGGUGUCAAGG,-0.941
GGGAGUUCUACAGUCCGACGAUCUUAGGAAGAGAAGACAAGGUGGCCUCUCAUUAGAAGAAGAGGAAGAGGAGGAUGCCAAUUCAGAAUCUGAGGGAAGCAGUAGUGAGGAGGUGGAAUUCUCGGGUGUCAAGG,-0.912
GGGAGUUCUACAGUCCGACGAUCUGCUUCUGAGUUGCCCAGGAGACCACUGGCAGAUGUCCCGGCGAAGAGAAGAGACACAUUGUUGGAAGAAGCAGCCCAUGACAGCUCCCCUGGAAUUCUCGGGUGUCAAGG,0.221
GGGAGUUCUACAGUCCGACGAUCGCAGGAAGUAAAAACAAAUGGAAAUGCUUCGGAUAGUGGCAGGGGUGGAAAUUGCUAAGGAAAGGGUGGGAUGGGAGUGGGUAAAGAGUUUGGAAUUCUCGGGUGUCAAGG,0.805

# Repeated from above (set 3):
Oligonucleotide,log fluorescence
GACGGTCTCGTTCTCGGGACGTGCTAG,1.54 z-score
GACGATTTCAGACTGGAGATGTGCTAG,0.0386 z-score
TTAGGTATCCTTTTCTTTTAGTGCTAG,1.48 z-score
TCACATGTGCTGTCTCAGACTGTGCTA,-0.706 z-score
GACGGTATCGACTTTCGGGATGTGCTA,1.57 z-score
ATAGATTTCAGTCTCGATTAGTGCTAG,2.14 z-score
GACGGTATCGGTTTAGGGACGTGCTAG,5.68 z-score
GACGGTATCGACACTGGGGGCGTGCTA,0.531 z-score
TTAGAACTGAGAGTGGATTAGTGCTAG,-0.406 z-score
TTAGGTCTACTTTTCCTTTAGTGCTAG,0.928 z-score
TTAGGTTTCGGGTCCGGTTAGTGCTAG,7.13 z-score
GACCATATCAGTCTCGAGACGTGCTAG,0.917 z-score
GACGGTCTCTGTCTCGGGACGTGCTAG,0.0644 z-score
GACGGTATCGACACTGCGGACGTGCTA,-0.404 z-score
